# Published values gathered from unrelated publications.
# Each numbered part is a random draw from the data of one study; scales do not carry over between parts. Positions count from the first letter of the parent shown.

# Series 1 — technique: protein binding microarray; form: double-stranded DNA, one strand shown; matrix: in vitro; concentration: not given; baseline: not given; reading: higher = stronger binding
# Target: Histone acetyltransferase KAT6A, winged helix 1, GST fusion (KAT6A, Homo sapiens, UniProt Q92794, residues 1-85)
# Setting: 8-mer, flanks averaged, mean of 2 arrays, mostly near background
# Target sequence (chain): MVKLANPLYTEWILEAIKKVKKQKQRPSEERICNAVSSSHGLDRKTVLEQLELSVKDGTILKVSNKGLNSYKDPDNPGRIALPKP
Sequence,E-score
GACCTTGA,-0.138
CATCTGGA,-0.0926
ACAGTCAC,-0.132
CTATCGGA,0.105
ACGCGAGC,0.213
CAAAACAC,-0.0961
GCCCGTGA,0.294
AGTATTCA,-0.0557
ACGCTGAT,0.262
AAAGTTGA,-0.136
ACTACGGC,0.318
ACCTATAG,-0.142
AGCATTTC,-0.128
ACGAAGCC,0.0502
CACAACTC,-0.193
CTTAAATC,-0.162
ACATGCTC,-0.0952
ACCTATAT,-0.104
ACGGAGGG,0.0771
ACAAAGTC,-0.189
AATGATTC,-0.085
AATGGGTA,-0.154
AGCAACTC,-0.0936
ACACTTCC,-0.0224
CCTACATA,-0.161

# Series 2 — technique: RNA Bind-n-Seq; form: RNA; matrix: in vitro; concentration: 365 nM; baseline: no-protein control; reading: higher = stronger binding
# Target: RNA binding protein fox-1 homolog 2, RRM domain, GST-SBP tag (RBFOX2, Homo sapiens, UniProt O43251-10, residues 100-194)
# Setting: natural RNA segment, single round, ends assumed
# Construct (chain): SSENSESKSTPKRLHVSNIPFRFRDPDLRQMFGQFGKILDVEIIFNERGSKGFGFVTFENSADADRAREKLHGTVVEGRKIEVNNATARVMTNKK
Sequence,RBNS enrichment (R)
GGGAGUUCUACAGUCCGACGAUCUCUACAAGAUCUUCGUUAAGAGUCAAGCUGCCGGUCAGGAGUCUGACAUUUGAAUCGUGUUGUGAUUUACAAAAAAAAAAAAAAAAAACCCUUCUGGUAGAUUUUAAUGAUGGAAUUCUCGGGUGCCAA,0.891
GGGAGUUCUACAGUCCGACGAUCCUGCUUUUUAAGAGAAAUUUCAGGAAGGAUGAUCAUUCCAGUUAGUUUGGCAUUUUUUGUCGUUUGUGCACAUAACUUGGUGUUAUCCUUAUGUCAUCAGAUUCCUCCUAUGGAAUUCUCGGGUGCCAA,0.618
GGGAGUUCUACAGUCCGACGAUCAUUAAUAGGGCAGAGACUCUGGUCCAUUUCCCAGCUGUACUUCUCUCUAAGAGGUGUAUGAAAAACCCAUCUUGCAAAAGAGACCAAAAUAUUAGACACAAUCGUUCCCAUGGAAUUCUCGGGUGCCAA,0.258
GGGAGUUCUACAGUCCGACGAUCUUUGUUUACUUUGGUUUUUUUGUUUUUAAUCUCAGAGAGAGGUGUGUUUAGUGGGCACAAGCUGUAAUAUUCAGCAAAACUUUGUCGACUGGCACUGUUUACAAGUCUGUUGGAAUUCUCGGGUGCCAA,0.532
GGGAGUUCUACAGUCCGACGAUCUUGAAAGGAGCUCCAGAGGAGUGGAGUUCUGUGUUGCUCACAUGUUAAAAUCUUGCUCACCUUCAGAGCAGAGGGAAUACCUAUCUUCAGAUAUCCGUCCAUUUUCAUCUUGGAAUUCUCGGGUGCCAA,0.505
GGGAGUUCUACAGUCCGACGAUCAAGUUAUAAGAACGUACACAGUGAAAGGAGUACAAGAGCAGUGUAAAGAAAUAGUUUUCUUAGAUAUUUGUCACAUACUACUUAAAUAAAAUUCUCUUGGGUUUAAUCUUUGGAAUUCUCGGGUGCCAA,0.43
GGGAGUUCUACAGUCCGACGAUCGUCUUCCUGGUGAGUUCUACUCAUGGUCGUUCUCAGGAAAACUGUGUUCCCUUUGUGUGUACGUUUCUCACCCCUUAACCACUUCAGUGUCAAAAAAGUUCCCAUUGUGUUGGAAUUCUCGGGUGCCAA,0.998
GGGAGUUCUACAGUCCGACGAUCAUUUCCUUAUCUCUCUGAUUAUCUUCUGGGACCCACGUCCUUUCCUCCACAUACCUACACCUUGGGUGCAUCACUCCAUUCAUGGCCUCCUGUUACCAACUGCGCAGACAUGGAAUUCUCGGGUGCCAA,0.501
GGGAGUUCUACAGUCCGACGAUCGUUAUCUAAGCUUCGUUAAUAGAUUUCUUAAUAUCAUCCAAUGUUUGGUGUUAUCUGCAUUGUUUUUUUUUUUAAAUUGUGGUUGUUCUGAUGUGUGAAAUUUAAGGAAAUGGAAUUCUCGGGUGCCAA,2.07
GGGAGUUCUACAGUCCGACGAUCCAAACAACCGAAGCUGUGAAAAAGGUCGAAGAAACUGUGGCAACUUCAGAGAUGGAUGAAAGUUUGGAGUGUGCAGGUGCGCAAUCAUUACCAGCUGAGAAGCUCUCCGAUGGAAUUCUCGGGUGCCAA,0.454
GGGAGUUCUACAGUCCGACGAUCGUGUGUCCCUCUCCCUAGUCUAAAAAGCAAUUGAAAAGGUCUAUGCAAUAAAGGUUGUUGCUUCCCUUAGGCCUUCACCCCUUCCACCCGACAUCCCUUUCAGUUAUUGUUGGAAUUCUCGGGUGCCAA,0.535
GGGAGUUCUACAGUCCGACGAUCACAUGGCAAAACCCCAUCUCUACUAAAAAUACAAAAAUGAGCUAGGCAUGGUGGCACACGCCUGUAAUCCCAGCUACACCUGAGGCUGAGGCAGGAGAAUUGCUUGAACCUGGAAUUCUCGGGUGCCAA,0.969

# Series 3 — technique: RNA Bind-n-Seq; form: RNA; matrix: in vitro; concentration: 200 nM; setting: whole 134-nt RNA, ends assumed; with: 150 mM KCl; baseline: input library; reading: higher = stronger binding
# Target: Fragile X messenger ribonucleoprotein 1, C-terminal low-complexity region (Fmr1, Mus musculus, UniProt P35922)
Sequence,log2 enrichment
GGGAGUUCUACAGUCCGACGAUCCUCAAGUCCUGUGCUACACAUCGUAUGUACCGAAUCGGAAGGAAGGGGAAGGGGAAAGUAUUAUGUUACGCCGUUCGGAUCUGCACUUCCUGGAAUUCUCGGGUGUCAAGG,-0.0215
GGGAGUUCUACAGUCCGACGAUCCAAGUCCUGUGCUACACAUCGUAUGUACCGAAUCGGCCCCGGCCCCGGGGCCCCGGAAAGUAUUAUGUUACGCCGUUCGGAUCUGCACUUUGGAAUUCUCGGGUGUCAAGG,-1.06
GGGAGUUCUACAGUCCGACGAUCACCAUGCAGGUGGGCAUCUUUGGGAAGUGGAGCAAGGGGGGGAUAGGGAGGGGGGUAACACUUUGGGAACAGGUGGUCCCAGGUCGUUUCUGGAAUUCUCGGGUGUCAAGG,0.67
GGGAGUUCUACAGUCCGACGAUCUCCUGUGCUACACAUCGUAUGUACCGAAUCGGAAAAAAGGGAAAAAAGGGGAAAAAAGGAAAGUAUUAUGUUACGCCGUUCGGAUCUGCAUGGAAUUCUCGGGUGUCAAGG,-0.644
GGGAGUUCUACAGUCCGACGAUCCCUGUGCUACACAUCGUAUGUACCGAAUCGGGAAAAAAAGGGAAAAAGGGAAAAAAAGGGAAAGUAUUAUGUUACGCCGUUCGGAUCUGCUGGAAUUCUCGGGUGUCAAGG,-0.734
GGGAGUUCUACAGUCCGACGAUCAGUCCUGUGCUACACAUCGUAUGUACCGAAUCAAACCCCCCCAAACCCAAAUUUAAAAAAGUAUUAUGUUACGCCGUUCGGAUCUGCACUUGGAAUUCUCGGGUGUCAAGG,-0.054
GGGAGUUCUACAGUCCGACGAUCAAGUCCUGUGCUACACAUCGUAUGUACCGAAUCGGGGUUUUGGUUUUGGGUUUUGGGAAAGUAUUAUGUUACGCCGUUCGGAUCUGCACUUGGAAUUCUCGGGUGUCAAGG,-0.243
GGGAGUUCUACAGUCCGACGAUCUUUUAAAGUGUUCUCCACCACACUUGGGCAUUUAUCUGUUUCUUUAAAUGGCCUUCUCUGUUUCUUGUUUGCAGGCAGCUAUCAAUGGUGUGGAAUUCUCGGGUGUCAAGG,0.22
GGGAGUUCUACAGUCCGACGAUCAGUCCUGUGCUACACAUCGUAUGUACCGAAUCGGAAAAGGGGAAAAGGGAAAAGGGGAAAGUAUUAUGUUACGCCGUUCGGAUCUGCACUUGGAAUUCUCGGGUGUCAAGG,0.0708
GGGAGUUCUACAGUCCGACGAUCGUCCUGUGCUACACAUCGUAUGUACCGAAUCGGGGAAAGGGGAAAAAAAGGGGAGGGGAAAGUAUUAUGUUACGCCGUUCGGAUCUGCACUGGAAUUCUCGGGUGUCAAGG,0.29
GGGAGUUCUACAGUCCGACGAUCAAGUCCUGUGCUACACAUCGUAUGUACCGAAUCGGGGUUUGGGGUUUGGGUUUGGGGAAAGUAUUAUGUUACGCCGUUCGGAUCUGCACUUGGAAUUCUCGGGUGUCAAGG,0.738
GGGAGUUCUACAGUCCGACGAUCUUUCGGCUACCCCCAGUUCUUCUUUGCCAAAGCGUACACGUGAAGAGGAAGAGGAUAGCACCAUAGAAGCAUCAGACCAAGUCUCUGAUGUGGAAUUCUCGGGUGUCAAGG,-1.35
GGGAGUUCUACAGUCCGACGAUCUCCUGUGCUACACAUCGUAUGUACCGAAUCGGAAAAAAGGGGAAAAAAGGGGAAAAAAGGAAAGUAUUAUGUUACGCCGUUCGGAUCUGCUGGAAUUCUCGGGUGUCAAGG,-0.459
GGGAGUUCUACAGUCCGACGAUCUCCUUUCUGUCAUUUUACACCCACAGUUGAAGAUUCCUGUCUCUGGAUCCAAAUCAGAGGGCCUUCUCUACGUCCACUCAUCCAGAGGUGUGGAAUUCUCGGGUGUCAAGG,-1.45

# Series 4 — technique: protein-binding microarray; form: double-stranded DNA, one strand shown; matrix: in vitro; concentration: 940 nM top; setting: 60-bp whole probe; with: salmon DNA 0.4 mg/ml; baseline: random background probes; reading: higher = stronger binding; constant ends, left off below: GCCTAGCAC … GTCTTGATTCGCTTGACGCTGCTG
# Target: Interferon regulatory factor 5, full length, phosphomimetic (IRF5, Homo sapiens, UniProt Q13568-2, residues 1-514, S451D/S453D/S456D/S462D)
Sequence,fitted relative affinity [z-score]
TCATGTCTGTGTCACAGAGAGTGCTAG,0.117
CCCTTTCTCAACCTCCAGAGGTGCTAG,1.54
TCAGCTTTCCTTCATGCACTGTGCTAG,0.636
TGCTTTCCAATTCTCTTTTCGTGCTAG,1.56
GACGATATTGGGACTGGAGACGTGCTA,-0.32
CCCTTTTAAGTTCTCTGAAGGTGCTAG,1.03
TGAGGTCTCGGTTTCGGTTAGTGCTAG,8.75
CCGGGTTTCACCATGTTGGCGTGCTAG,4.04
TGCCTTTTTTTTTTTTTCTGGTGCTAG,1.38
TTAGGACTGGACTGTCGGTTAGTGCTA,-0.482
TAAAGCATTACTTTAGGTTCGTGCTAG,-0.741
ACAAGTTTTTATTTTCTGAAGTGCTAG,0.915
GACGATATAAGTCTCGAGACGTGCTAG,0.524
TCAAATCTCTTTCCTTAACTGTGCTAG,1.22
TGAGCTACAGATGAGGCTCGGTGCTAG,-0.64
TTAGGTTTCCTACTGATTTAGTGCTAG,0.915
GACGGCTTCCTTCTCCTGACGTGCTAG,0.31
GACGGTCTCGGTTTAGGGACGTGCTAG,5.24
GACGGTTTCGACAGTGGGGACGTGCTA,6.86

# Series 5 — technique: protein-binding microarray; form: double-stranded DNA, one strand shown; matrix: in vitro; concentration: not given; reading: higher = stronger binding
# Target: Myc proto-oncogene protein, bHLH-zipper, MAX partner unstated (MYC, Homo sapiens, UniProt P01106, residues 368-449)
# Chain of UniProt P01106 (368-449, looked up): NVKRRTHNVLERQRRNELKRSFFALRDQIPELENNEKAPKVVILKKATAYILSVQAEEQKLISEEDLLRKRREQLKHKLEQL
# Setting: k-mer, scored over probes, only values ≥0.25
Sequence,E-score
ACGCTGTC,0.302
CTCGTGCC,0.406
ATGACCAC,0.305
AGACACGA,0.345
AGTGCACA,0.257
ACAACGTG,0.44
ACCACACG,0.392
CCACCCGC,0.289
GCGTGTGA,0.363
CACGATGC,0.426
CGTGACAC,0.37
CCGGACAC,0.273
GGTGTCAC,0.268

# Series 6 — target: CCNE1, cyclin fold, Cln2 fusion (human); technique: yeast growth competition, sequencing; matrix: yeast; setting: weak parent motif; baseline: not given; reading: higher = stronger binding
# Starting sequence: CDT1 docking peptide (human); PPARRRLRLSVDE
Change,normalised enrichment score
L7A,1.13
R5K L9F,0.75
R8A,0.955
V11A,0.592
P2A,0.923
R6A,0.303
R4A,0.404
